Results collected from several papers.
A part holds a random share of what one study measured.
Sequence of UniProt P49841 (whole entry, looked up): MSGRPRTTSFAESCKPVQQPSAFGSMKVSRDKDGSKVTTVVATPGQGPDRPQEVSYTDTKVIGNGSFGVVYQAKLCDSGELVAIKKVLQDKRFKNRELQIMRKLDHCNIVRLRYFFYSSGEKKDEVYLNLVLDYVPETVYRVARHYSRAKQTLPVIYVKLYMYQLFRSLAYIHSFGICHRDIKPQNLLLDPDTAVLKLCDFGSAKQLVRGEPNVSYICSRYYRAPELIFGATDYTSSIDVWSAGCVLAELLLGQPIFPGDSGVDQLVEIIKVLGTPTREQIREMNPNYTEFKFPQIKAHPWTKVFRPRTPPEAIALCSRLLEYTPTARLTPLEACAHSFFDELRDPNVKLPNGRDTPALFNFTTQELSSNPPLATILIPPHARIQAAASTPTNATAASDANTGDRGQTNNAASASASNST
Sequence of UniProt Q9NSY1 (whole entry, looked up): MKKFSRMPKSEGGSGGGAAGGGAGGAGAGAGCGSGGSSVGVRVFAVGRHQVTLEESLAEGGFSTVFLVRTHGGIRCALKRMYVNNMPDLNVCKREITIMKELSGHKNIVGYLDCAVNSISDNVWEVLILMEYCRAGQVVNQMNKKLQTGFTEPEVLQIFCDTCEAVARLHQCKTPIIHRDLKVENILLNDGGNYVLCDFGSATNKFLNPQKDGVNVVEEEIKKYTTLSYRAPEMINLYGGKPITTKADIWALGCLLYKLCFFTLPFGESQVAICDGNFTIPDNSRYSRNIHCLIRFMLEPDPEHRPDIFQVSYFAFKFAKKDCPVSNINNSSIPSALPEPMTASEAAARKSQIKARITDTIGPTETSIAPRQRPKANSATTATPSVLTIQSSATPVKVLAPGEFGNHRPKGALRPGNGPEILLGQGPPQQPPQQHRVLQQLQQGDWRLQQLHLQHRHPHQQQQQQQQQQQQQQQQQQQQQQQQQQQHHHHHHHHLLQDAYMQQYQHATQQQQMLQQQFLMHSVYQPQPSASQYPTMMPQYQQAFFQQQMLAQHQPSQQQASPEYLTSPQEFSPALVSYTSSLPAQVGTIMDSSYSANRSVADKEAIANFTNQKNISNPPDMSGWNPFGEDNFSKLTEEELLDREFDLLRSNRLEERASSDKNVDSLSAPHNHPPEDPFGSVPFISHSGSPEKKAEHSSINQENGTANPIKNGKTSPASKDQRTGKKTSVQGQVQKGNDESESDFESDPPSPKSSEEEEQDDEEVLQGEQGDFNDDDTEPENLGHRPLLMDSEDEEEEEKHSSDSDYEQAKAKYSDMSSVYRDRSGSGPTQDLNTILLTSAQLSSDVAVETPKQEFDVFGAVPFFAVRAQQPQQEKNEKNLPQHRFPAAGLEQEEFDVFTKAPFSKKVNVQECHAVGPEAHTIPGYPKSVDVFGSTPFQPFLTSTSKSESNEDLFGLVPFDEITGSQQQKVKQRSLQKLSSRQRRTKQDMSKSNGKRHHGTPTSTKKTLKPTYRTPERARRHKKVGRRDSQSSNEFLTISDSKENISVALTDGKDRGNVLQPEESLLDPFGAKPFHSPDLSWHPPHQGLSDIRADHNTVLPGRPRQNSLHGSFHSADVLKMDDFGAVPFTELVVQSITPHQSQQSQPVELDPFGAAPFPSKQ
Sequence of UniProt Q9Y5S2 (whole entry, looked up): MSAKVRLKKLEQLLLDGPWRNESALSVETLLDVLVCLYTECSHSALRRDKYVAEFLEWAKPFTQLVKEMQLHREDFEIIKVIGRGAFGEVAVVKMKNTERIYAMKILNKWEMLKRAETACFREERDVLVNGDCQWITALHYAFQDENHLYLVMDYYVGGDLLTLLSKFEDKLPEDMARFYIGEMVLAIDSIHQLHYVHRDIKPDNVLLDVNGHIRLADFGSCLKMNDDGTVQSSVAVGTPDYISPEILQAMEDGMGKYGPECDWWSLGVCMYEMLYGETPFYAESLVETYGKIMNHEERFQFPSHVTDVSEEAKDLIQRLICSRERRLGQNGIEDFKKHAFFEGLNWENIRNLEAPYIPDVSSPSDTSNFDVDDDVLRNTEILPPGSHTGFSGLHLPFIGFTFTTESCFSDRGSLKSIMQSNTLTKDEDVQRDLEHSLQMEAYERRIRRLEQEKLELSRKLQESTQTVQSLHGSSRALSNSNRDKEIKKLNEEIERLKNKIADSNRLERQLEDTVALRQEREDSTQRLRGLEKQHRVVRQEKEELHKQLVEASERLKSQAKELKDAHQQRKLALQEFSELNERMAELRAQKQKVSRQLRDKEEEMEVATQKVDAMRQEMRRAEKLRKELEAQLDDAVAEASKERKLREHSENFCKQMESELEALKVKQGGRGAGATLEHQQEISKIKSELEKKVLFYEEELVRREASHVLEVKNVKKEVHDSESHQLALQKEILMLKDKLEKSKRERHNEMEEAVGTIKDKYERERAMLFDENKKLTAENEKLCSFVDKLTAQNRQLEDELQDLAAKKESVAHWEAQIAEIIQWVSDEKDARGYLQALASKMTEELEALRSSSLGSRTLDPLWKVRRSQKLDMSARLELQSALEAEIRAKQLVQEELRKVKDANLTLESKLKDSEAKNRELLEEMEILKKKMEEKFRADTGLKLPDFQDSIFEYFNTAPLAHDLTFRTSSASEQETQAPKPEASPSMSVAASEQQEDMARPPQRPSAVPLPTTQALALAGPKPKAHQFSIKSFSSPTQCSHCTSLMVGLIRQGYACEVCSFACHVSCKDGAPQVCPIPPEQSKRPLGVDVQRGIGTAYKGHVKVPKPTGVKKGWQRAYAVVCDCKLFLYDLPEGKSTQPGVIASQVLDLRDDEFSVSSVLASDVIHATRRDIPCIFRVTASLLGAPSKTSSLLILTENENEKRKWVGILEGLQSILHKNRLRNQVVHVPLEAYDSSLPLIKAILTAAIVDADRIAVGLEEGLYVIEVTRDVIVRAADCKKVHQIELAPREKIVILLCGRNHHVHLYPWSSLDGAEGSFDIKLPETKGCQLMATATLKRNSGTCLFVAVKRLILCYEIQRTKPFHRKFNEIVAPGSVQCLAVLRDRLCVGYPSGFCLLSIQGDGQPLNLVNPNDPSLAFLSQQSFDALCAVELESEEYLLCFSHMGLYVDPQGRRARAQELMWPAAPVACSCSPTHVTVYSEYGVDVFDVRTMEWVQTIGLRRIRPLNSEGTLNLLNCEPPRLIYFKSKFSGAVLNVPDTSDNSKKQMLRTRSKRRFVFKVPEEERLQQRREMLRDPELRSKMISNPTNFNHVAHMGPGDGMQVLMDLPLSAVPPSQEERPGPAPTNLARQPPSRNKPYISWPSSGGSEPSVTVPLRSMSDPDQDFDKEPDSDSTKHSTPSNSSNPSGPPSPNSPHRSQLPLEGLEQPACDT
Sequence of UniProt Q04912 (whole entry, looked up): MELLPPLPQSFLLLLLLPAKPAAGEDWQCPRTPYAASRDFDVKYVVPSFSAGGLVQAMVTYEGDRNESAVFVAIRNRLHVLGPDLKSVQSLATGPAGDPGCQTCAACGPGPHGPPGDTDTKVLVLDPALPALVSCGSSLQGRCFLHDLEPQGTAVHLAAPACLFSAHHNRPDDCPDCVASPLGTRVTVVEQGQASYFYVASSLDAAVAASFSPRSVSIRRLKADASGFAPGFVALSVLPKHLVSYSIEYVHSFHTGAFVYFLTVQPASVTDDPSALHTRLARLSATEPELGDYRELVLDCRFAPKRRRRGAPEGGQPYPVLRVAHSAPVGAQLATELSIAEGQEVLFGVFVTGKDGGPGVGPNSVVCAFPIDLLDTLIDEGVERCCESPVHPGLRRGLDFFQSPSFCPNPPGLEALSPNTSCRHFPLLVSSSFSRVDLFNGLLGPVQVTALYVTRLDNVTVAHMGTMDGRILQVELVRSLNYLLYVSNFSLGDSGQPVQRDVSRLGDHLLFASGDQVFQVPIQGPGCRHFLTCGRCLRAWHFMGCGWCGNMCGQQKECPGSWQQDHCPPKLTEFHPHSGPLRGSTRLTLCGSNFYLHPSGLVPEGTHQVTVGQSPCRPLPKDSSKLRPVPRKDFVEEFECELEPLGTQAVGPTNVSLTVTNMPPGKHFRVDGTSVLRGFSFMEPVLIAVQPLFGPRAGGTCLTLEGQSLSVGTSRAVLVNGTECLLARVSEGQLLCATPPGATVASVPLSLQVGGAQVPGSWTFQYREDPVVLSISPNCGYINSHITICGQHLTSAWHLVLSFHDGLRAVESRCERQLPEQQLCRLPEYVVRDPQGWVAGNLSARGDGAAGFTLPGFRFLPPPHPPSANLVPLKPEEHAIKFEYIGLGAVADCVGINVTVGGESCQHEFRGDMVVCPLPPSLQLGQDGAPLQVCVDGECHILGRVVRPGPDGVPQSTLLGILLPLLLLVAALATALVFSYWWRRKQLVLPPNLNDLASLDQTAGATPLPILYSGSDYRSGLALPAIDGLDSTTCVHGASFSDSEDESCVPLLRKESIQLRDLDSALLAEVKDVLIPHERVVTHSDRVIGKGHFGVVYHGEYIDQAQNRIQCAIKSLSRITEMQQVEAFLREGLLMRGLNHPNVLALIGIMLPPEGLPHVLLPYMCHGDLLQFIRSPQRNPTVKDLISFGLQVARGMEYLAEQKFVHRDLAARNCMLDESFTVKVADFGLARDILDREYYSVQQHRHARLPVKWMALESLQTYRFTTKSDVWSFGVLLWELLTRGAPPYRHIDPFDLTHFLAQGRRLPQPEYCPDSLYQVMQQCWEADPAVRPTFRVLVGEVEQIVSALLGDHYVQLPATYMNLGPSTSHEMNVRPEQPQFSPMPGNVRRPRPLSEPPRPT
Sequence of UniProt Q86YV6 (whole entry, looked up): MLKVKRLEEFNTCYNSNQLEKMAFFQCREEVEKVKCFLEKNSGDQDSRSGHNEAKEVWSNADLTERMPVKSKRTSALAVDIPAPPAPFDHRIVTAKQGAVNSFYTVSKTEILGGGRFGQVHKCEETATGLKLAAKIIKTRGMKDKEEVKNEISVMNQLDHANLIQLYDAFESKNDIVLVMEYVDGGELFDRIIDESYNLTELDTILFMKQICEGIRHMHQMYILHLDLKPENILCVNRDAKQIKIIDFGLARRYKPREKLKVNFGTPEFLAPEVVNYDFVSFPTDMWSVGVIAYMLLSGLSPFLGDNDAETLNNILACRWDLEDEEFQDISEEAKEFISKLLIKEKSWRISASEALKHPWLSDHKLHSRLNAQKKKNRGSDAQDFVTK

Set 1
Host: human
Medium: microsomes or S9
Concentration: 2 µM
Time: 0.5 h
`CNc1nc(NC2CCOC2c2ccc(F)c(F)c2)ncc1Br` (stereo not drawn) has a remaining compound of 26%.
`COC(=O)c1ccc(C(F)(F)F)nc1OC(C)C(=O)Nc1ccccc1` (stereo not drawn) gave a remaining compound of 0.00816%.
For `CC(C)(C)NC(=O)Cn1c(=O)n(-c2ccccc2F)c(=O)c2sccc21`, the remaining compound was 88.4%.
The remaining compound of `COc1ccc(C#Cc2nc3ccc(C)cc3o2)cc1` is reported as 53.6%.
With `O=c1[nH]c2ccc(NCc3ccc(-c4ccccc4)cc3)cc2[nH]1` the remaining compound was 87.5%.
`CN(C)C(=O)c1sc(Cl)nc1S(N)(=O)=O` has a remaining compound of 88.5%.
With `CN1CCN(Cc2ccc(-c3cn(C(=O)OC(C)(C)C)nc3C3CCCN(C(=O)OC(C)(C)C)C3)cc2)CC1` (stereo not drawn) the remaining compound was 3.43%.

Set 2
Cell line: A-375
Concentration: 100 µM
Time: 18 h
For `Nc1ccc(S(=O)(=O)Nc2ncccn2)cc1`, the viability was 104%.
`O=C(O)c1ccc(S(=O)(=O)N(Cl)Cl)cc1` has a viability of 89.9%.
`CCC(=O)O[C@]1(C(=O)SCF)[C@H](C)C[C@H]2[C@@H]3C[C@H](F)C4=CC(=O)C=C[C@]4(C)[C@@]3(F)[C@@H](O)C[C@@]21C` has a viability of 88%.
The viability of `COC1C(OC(N)=O)C(O)C(Oc2ccc3c(O)c(NC(=O)c4ccc(O)c(CC=C(C)C)c4)c(=O)oc3c2C)OC1(C)C` (stereo not drawn) is reported as 89.9%.
`S=P(N1CC1)(N1CC1)N1CC1` gave a viability of 85.5%.
With `O=C(O)CCc1nc(-c2ccccc2)c(-c2ccccc2)o1` the viability was 87.2%.
`CC(=O)O[C@H]1C[C@@H]2CC[C@@H]3[C@H](CC[C@@]4(C)[C@H]3C[C@H]([N+]3(C)CCCCC3)[C@@H]4OC(C)=O)[C@@]2(C)C[C@@H]1N1CCCCC1` has a viability of 80.9%.
`CCC[C@H](N[C@@H](C)C(=O)N1[C@H](C(=O)O)C[C@@H]2CCCC[C@@H]21)C(=O)O` gave a viability of 110%.
For `C[C@@H]1C[C@H]2[C@@H]3CCC4=CC(=O)C=C[C@]4(C)[C@@]3(Cl)[C@@H](O)C[C@]2(C)[C@@]1(OC(=O)c1ccco1)C(=O)CCl`, the viability was 39.1%.
`Cc1cc(CC(=O)O)n(C)c1C(=O)c1ccc(Cl)cc1` has a viability of 87.6%.
With `COc1cc2c(cc1OC)[C@@H]1Cc3ccc(OC)c(OC)c3CN1CC2` the viability was 98.6%.

Set 3
SMILES: CCN(CC)CCNC(=O)c1c(C)[nH]c(/C=C2\C(=O)Nc3ccc(F)cc32)c1C
Effect on: enzyme activity
Mode: inhibitor
Concentration: 0.5 µM
Relative to: control
The remaining activity was 80.7% (JAK3 (Homo sapiens, UniProt P52333)).
For FGFR3 (Homo sapiens, UniProt P22607): remaining activity read 39.7%.
For ULK2 (Homo sapiens, UniProt Q8IYT8): remaining activity read 40.3%.
FRK (Homo sapiens, UniProt P42685) — remaining activity: 84.4%.
The remaining activity was 88.6% (TEK (Homo sapiens, UniProt Q02763)).
The remaining activity was 95.8% (GSK3B (Homo sapiens, UniProt P49841)).
The remaining activity was 92% (MST1R (Homo sapiens, UniProt Q04912)).
For NEK1 (Homo sapiens, UniProt Q96PY6): remaining activity read 72.6%.
For NEK6 (Homo sapiens, UniProt Q9HC98): remaining activity read 89%.
It gave 90.3% for remaining activity (TAOK2 (Homo sapiens, UniProt Q9UL54)).
The remaining activity was 39.8% (MERTK (Homo sapiens, UniProt Q12866)).
The remaining activity was 124% (ARAF (Homo sapiens, UniProt P10398)).
It gave 71.3% for remaining activity (GRK7 (Homo sapiens, UniProt Q8WTQ7)).
The remaining activity was 93.2% (MAPKAPK2 (Homo sapiens, UniProt P49137)).
MAP3K5 (Homo sapiens, UniProt Q99683) — remaining activity: 100%.
ABL2 (Homo sapiens, UniProt P42684) — remaining activity: 61.8%.
The remaining activity was 127% (MAP3K14 (Homo sapiens, UniProt Q99558)).

Set 4
SMILES: CCOCCn1cc(C(=O)Nc2ccc(-n3nc(-c4cccnc4)cc3C(F)(F)F)cn2)ccc1=O
Effect on: cell-free assay
Technique: competition with immobilised ligand
Concentration: 1 µM
It gave 100% for remaining binding (MYLK4 (Homo sapiens, UniProt Q86YV6)).
It gave 86% for remaining binding (FLT3 (Homo sapiens, UniProt P36888, D835V/ITD)).
The remaining binding was 86% (GSK3B (Homo sapiens, UniProt P49841)).
For CDK13 (Homo sapiens, UniProt Q14004): remaining binding read 92%.
It gave 75% for remaining binding (MAP3K19 (Homo sapiens, UniProt Q56UN5)).
For STK36 (Homo sapiens, UniProt Q9NRP7): remaining binding read 71%.
The remaining binding was 91% (SBK1 (Homo sapiens, UniProt Q52WX2)).
It gave 100% for remaining binding (FGFR1 (Homo sapiens, UniProt P11362)).
WNK3 (Homo sapiens, UniProt Q9BYP7) — remaining binding: 76%.
BMPR1B (Homo sapiens, UniProt O00238) — remaining binding: 71%.
For HASPIN (Homo sapiens, UniProt Q8TF76): remaining binding read 100%.
It gave 84% for remaining binding (MAP3K1 (Homo sapiens, UniProt Q13233)).
MAP3K3 (Homo sapiens, UniProt Q99759) — remaining binding: 100%.
For EGFR (Homo sapiens, UniProt P00533, del746-750): remaining binding read 92%.
For Tyrosine-protein kinase ABL1, non-phosphorylated (ABL1, Homo sapiens, UniProt P00519, F317L): remaining binding read 100%.
It gave 89% for remaining binding (CDC42BPB (Homo sapiens, UniProt Q9Y5S2)).
It gave 95% for remaining binding (BMP2K (Homo sapiens, UniProt Q9NSY1)).
It gave 100% for remaining binding (CSNK1A1L (Homo sapiens, UniProt Q8N752)).
The remaining binding was 90% (EGFR (Homo sapiens, UniProt P00533, L858R)).
